Assay results gathered from unrelated publications.
Protocols differ between the studies behind these lines. “And” joins repeats or separate records; there may be more than shown. ± gives the spread as reported.
Sequence of UniProt Q14204 (whole entry, looked up): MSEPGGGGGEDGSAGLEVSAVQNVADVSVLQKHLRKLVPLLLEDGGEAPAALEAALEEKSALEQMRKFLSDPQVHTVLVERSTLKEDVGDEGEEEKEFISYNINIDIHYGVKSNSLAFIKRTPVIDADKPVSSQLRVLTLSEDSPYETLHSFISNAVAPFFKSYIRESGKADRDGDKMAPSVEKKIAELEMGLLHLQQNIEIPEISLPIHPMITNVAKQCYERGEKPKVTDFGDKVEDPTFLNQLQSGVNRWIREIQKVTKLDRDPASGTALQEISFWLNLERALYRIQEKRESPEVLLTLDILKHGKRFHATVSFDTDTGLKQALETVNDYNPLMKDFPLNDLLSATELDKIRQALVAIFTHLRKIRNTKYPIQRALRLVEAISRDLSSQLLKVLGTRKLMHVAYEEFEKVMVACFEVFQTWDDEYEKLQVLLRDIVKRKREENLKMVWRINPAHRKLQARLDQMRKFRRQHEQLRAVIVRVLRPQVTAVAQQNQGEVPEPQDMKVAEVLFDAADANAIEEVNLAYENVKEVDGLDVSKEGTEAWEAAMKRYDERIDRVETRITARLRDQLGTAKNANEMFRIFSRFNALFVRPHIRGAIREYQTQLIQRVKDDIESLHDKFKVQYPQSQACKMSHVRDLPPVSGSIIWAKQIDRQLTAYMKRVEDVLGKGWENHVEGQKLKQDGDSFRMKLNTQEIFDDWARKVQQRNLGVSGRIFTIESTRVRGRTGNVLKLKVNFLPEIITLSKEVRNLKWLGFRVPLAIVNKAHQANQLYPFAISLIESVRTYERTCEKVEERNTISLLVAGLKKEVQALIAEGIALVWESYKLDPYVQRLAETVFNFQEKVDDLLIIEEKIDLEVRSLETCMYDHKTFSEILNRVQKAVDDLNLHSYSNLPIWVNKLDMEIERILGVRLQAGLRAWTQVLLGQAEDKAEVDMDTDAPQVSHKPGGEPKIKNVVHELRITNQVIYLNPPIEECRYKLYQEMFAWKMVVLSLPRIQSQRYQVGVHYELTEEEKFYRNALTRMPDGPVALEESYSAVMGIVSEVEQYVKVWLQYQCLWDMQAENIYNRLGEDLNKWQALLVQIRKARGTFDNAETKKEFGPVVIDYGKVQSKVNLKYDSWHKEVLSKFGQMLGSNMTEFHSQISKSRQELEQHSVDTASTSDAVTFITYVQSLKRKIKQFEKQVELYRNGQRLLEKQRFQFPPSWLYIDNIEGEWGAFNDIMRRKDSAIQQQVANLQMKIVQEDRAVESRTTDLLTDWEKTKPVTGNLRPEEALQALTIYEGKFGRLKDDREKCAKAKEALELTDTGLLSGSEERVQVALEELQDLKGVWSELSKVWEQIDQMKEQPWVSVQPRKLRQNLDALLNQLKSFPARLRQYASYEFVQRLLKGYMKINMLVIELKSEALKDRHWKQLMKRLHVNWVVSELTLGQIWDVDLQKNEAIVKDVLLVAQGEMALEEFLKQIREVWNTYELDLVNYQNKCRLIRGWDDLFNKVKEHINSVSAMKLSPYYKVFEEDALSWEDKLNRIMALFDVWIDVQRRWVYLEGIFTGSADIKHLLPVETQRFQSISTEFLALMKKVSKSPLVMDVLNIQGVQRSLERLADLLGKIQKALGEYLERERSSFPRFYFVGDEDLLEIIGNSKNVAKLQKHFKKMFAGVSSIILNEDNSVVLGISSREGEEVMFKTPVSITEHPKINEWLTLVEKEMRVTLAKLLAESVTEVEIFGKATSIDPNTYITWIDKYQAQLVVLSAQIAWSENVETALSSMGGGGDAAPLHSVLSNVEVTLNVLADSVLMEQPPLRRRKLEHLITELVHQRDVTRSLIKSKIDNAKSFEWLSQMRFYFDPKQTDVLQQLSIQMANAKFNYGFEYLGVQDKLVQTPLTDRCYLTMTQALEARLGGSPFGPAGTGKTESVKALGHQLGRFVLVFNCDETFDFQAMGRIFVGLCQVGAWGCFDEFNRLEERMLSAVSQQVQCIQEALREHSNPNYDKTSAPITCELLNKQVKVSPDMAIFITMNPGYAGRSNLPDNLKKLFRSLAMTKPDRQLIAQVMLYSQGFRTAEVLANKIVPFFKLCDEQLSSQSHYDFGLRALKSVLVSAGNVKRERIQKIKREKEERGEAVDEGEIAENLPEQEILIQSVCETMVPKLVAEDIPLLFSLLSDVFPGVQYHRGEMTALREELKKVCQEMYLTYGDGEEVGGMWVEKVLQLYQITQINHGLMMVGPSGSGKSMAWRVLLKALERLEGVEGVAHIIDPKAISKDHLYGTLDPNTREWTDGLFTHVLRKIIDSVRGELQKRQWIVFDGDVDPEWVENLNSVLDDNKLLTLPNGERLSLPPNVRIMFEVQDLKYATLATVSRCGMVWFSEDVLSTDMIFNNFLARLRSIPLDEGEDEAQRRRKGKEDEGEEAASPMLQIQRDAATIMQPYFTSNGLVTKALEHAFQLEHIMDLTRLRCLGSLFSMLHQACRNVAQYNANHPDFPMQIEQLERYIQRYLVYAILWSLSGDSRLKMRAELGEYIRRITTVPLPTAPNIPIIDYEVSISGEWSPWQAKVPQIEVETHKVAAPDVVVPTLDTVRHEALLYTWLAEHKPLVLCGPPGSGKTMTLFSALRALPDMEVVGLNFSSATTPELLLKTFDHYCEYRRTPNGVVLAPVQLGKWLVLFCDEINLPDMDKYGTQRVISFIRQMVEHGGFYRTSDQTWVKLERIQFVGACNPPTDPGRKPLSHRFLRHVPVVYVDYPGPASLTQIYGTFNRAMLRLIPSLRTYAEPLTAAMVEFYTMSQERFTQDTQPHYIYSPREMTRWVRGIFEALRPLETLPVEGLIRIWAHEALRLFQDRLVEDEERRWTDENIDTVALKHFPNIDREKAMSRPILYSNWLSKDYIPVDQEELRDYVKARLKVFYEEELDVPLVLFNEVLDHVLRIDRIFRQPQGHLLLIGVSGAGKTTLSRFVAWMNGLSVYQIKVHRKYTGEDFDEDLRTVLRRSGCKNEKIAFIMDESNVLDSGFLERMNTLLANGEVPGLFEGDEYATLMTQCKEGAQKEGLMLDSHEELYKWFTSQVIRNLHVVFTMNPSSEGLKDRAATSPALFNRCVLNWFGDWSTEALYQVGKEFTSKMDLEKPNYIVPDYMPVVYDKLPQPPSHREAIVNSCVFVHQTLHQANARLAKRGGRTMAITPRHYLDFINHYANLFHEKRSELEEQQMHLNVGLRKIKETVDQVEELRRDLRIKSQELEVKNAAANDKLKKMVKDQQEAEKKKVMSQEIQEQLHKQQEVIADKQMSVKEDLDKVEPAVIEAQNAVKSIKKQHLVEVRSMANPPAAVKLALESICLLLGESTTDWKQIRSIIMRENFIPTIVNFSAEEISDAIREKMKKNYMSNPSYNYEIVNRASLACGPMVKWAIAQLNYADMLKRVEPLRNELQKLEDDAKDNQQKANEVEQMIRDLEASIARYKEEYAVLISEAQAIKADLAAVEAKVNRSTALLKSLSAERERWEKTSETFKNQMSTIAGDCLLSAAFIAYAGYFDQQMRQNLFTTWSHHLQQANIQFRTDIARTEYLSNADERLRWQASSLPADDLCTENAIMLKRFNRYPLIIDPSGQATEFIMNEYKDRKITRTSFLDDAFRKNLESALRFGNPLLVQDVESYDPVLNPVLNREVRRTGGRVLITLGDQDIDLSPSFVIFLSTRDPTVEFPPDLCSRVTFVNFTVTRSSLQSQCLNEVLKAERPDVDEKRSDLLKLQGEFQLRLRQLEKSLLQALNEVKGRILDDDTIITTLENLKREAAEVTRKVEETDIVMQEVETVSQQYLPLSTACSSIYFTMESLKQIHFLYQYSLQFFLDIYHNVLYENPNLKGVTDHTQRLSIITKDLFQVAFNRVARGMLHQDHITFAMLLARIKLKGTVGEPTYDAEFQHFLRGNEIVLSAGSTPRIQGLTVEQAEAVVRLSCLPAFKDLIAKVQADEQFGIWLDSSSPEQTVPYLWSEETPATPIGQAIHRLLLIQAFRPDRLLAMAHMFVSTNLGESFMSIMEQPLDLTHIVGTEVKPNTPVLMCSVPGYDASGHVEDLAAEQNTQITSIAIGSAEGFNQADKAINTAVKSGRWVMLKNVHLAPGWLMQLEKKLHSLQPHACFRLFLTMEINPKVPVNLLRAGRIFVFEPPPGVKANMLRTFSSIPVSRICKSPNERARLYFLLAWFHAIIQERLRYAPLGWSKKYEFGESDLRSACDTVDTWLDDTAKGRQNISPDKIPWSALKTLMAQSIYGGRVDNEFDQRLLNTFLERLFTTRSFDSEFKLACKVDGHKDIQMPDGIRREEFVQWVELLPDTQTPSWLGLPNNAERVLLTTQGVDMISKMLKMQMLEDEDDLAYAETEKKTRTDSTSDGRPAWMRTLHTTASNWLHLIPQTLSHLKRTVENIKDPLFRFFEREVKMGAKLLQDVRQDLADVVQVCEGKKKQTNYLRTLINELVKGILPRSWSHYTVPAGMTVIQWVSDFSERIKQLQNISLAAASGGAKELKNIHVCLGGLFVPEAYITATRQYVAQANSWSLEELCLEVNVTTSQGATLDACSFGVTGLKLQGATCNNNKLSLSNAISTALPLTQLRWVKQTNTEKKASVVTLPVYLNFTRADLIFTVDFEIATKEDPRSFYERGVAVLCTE
Sequence of UniProt P24530 (whole entry, looked up): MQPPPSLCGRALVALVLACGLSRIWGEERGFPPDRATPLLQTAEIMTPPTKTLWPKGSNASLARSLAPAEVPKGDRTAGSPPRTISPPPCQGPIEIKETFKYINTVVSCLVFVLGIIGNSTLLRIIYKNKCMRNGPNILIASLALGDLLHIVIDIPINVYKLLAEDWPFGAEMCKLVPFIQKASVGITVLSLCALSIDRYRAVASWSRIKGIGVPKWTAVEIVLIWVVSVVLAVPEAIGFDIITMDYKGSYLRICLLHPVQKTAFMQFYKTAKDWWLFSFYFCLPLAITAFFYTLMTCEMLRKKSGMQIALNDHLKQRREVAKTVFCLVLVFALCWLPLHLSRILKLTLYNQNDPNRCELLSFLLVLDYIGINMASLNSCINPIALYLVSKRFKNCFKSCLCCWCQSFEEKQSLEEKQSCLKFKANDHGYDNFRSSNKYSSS

For C[C@]1(O)CC[C@@]2(C)[C@@H](CC[C@@H]3[C@@H]2CC[C@]2(C)[C@@H]([N+](=O)[O-])CC[C@@H]32)C1, the ED50 was > 100 mg/kg (protection against pentylenetetrazol seizures; male NIH Swiss mice; intraperitoneal, 15 min before test, added: pentylenetetrazol 80 mg/kg s.c.).
The tumour volume of N.N.[Cl][Pt][Cl] is reported as 76.6 mm3 and 50.4 mm3 and 205 mm3 and 119 mm3 and 203 mm3 and 283 mm3 and 271 mm3 and 456 mm3 (KSN/Slc nude mice, SAS xenograft; dose not given, day 8).
For Cc1cn(-c2cc(NC(=O)c3ccc(C)c(Nc4nccc(-c5cccnc5)n4)c3)cc(C(F)(F)F)c2)cn1, “NPI caregiver distress score” read 2.9 ± 3.3 (Homo sapiens; 300 mg, 12 months; direction not given).
CS(=O)(=O)c1ccc(-c2nnc(/C=C/c3nnc(-c4ccc(C#N)cc4)o3)n2-c2ccccc2Cl)nc1: “normalized enrichment score” -2.41 (RNA-seq GSEA, item: FALLER_STEM_MOUSE; organoids, small intestinal, Apc Q1405X, mouse; dose not given, wild-type organoids; baseline: DMSO, direction not given).
CC[C@H](C)[C@H](NC(=O)[C@H](C)NC(=O)[C@H](CCCCN)NC(=O)[C@H](CC(C)C)NC(=O)[C@H](C)NC(=O)[C@@H](NC(=O)[C@H](Cc1c[nH]cn1)NC(=O)[C@H](CC(C)C)NC(=O)[C@@H](NC(=O)[C@@H](NC(=O)[C@H](CCCCN)NC(=O)[C@H](C)NC(=O)[C@H](C)NC(=O)[C@H](CO)NC(=O)[C@H](CCCCN)NC(=O)[C@H](Cc1ccccc1)NC(=O)[C@@H](NC(=O)[C@H](CCCCN)NC(=O)[C@H](CC(C)C)NC(=O)[C@H](Cc1ccccc1)NC(=O)[C@H](CO)NC(=O)[C@H](CCCCN)NC(=O)[C@H](Cc1c[nH]c2ccccc12)NC(=O)[C@H](CCCCN)NC(C)=O)[C@@H](C)O)[C@@H](C)O)C(C)C)[C@@H](C)O)C(=O)N[C@@H](CO)C(=O)N[C@@H](CO)C(N)=O has an MBC90 of > 64 µg/mL (Enterococcus faecalis; 40 strains).
For C[C@H](NC(=O)c1c(C(F)F)nn(C)c1Oc1cccc(C(F)(F)F)c1)c1ccc(C(=O)O)cc1, the deaths was 12.5% (human, advanced tumours; 250 mg).
C[C@@H](O)[C@@H](CO)NC(=O)[C@@H](CCCNC(=N)N)NC(=O)[C@@H]1CCCN1C(=O)[C@@H]1CSSC[C@H](NC(=O)[C@H](Cc2ccccc2)NC(=O)CN2CCN(CC(=O)O)CCN(CC(=O)O)CCN(CC(=O)O)CC2)C(=O)N[C@@H](Cc2ccc(O)cc2)C(=O)N[C@@H](Cc2ccccc2)C(=O)N[C@@H](CCC(N)=O)C(=O)N[C@@H](CC(N)=O)C(=O)N1 [gallium-68 labelled] has a tissue uptake of 0.03 %ID/g (healthy Wistar rat, stomach; intravenous, 8 MBq, 120 min, individual animals).
For COc1cc(C(=O)c2c[nH]c3cc(-c4cccc(OP(=O)([O-])[O-])c4)ccc23)cc(OC)c1OC.[Na+].[Na+], “bioluminescence signal reduction” read ~90% (bioluminescence imaging; mouse orthotopic RENCA-luc kidney tumour; dose not given, 2.5 h post-treatment).
COc1cc(Nc2ncc(F)c(Nc3ccc4c(n3)NC(=O)C(C)(C)O4)n2)cc(OC)c1OC has an IC50 of > 10 µM (EDNRB (Homo sapiens, UniProt P24530)).
Under “log2 fold change”, CC[C@H](C)[C@@H]1NC(=O)[C@@H]2CCCN2C(=O)[C@H](CC(C)C)NC(=O)[C@H](CC(C)C)NC(=O)CNC(=O)[C@@H](NC(=O)[C@@H](NC(=O)[C@H](CC(=O)O)NC(=O)CNC(=O)[C@@H](NC(=O)[C@H](C)NC(=O)CNC(=O)[C@H](CCCCN)NC(=O)[C@H](CC(C)C)NC(=O)[C@H](CC(C)C)NC(=O)[C@H](CCCCN)NC(=O)CNC(=O)[C@@H](NC(=O)[C@@H](N)CC(C)C)C(C)C)C(C)C)C(C)C)CSSC[C@@H](C(=O)O)NC1=O is recorded as -3.83 (RNA-seq, item: Plac8; mouse, traumatic brain injury model, frontal cortex and hippocampus; dose not given; baseline: TBI alone).
For C[C@@H]1N=C(c2ccccc2F)c2cc(Br)ccc2-n2cnc(C(=O)O)c21, the relaxation time was ≤ 30 min (guinea pig tracheal rings; added: substance P contraction).
CN1CCN(C(C(=O)NCCc2ccc(F)cc2)c2ccc(C#N)cc2)CC1 (stereo not drawn): “GLT-1 protein level” “no effect” (immunoblotting; rat, male and female, prefrontal cortex; ip, 100 mg/kg twice daily, 7 days, added: clavulanic acid 10 mg/kg; baseline: vehicle).
Under “head twitch count”, O=C(O)/C=C/C(=O)O.Oc1cccc2[nH]cc(CCNCc3ccccc3)c12 is recorded as 25 ± 1.9 (C57BL/6J mice; subcutaneous, 10 mg/kg).
For Cn1ncc(-c2nc(N[C@H]3CC[C@H](N)CC3)ncc2Cl)c1CC1CC1, the CRi rate was 10% (phase I clinical trial; R/R AML or high-risk MDS patients; dose not given, intent-to-treat).
C[C@H]1CN(c2n[nH]c3nc(N[C@H]4CC[C@H](NS(=O)(=O)CCC(F)(F)F)CC4)ncc23)CCO1 has a relative abundance of 1.01 (DYNC1H1 (Homo sapiens, UniProt Q14204); inhibitor, Kinobeads competition profiling; 0.032 µM; baseline: vehicle).
For Cc1ccc2cc(N3CCC4(O)C(=O)c5cc(C)c(C)cc5N=C34)ccc2n1 (stereo not drawn), “minimally efficacious dose” read 2 mg/kg (rat; IV, methamphetamine seeking).
The event-free survival of CN1CCN(S(=O)(=O)c2cc([N+](=O)[O-])ccc2N(CCOS(C)(=O)=O)CCOS(C)(=O)=O)CC1 is reported as 31.2 days (NSG mice, sample BB PDX; intraperitoneal, 25 mg/kg weekly x3).
With CC[C@H](C)[C@H](NC(=O)[C@H](Cc1ccccc1)NC(=O)[C@H](CCC(=O)O)NC(=O)[C@H](CCCNC(=N)N)NC(=O)[C@H](C)NC(=O)[C@H](C)NC(=O)[C@H](CCC(N)=O)NC(=O)[C@H](CCC(=O)O)NC(=O)[C@H](CCC(=O)O)NC(=O)[C@H](CC(C)C)NC(=O)[C@H](Cc1ccc(O)cc1)NC(=O)[C@H](CO)NC(=O)[C@H](CO)NC(=O)[C@@H](NC(=O)[C@H](CC(=O)O)NC(=O)[C@H](CO)NC(=O)[C@@H](NC(=O)[C@H](Cc1ccccc1)NC(=O)[C@@H](NC(=O)CNC(=O)[C@H](CCC(=O)O)NC(=O)[C@H](C)NC(=O)CCc1c[nH]cn1)[C@@H](C)O)[C@@H](C)O)C(C)C)C(=O)N[C@@H](C)C(=O)N[C@@H](Cc1c[nH]c2ccccc12)C(=O)N[C@@H](CC(C)C)C(=O)N[C@H](C(=O)N[C@@H](CCCNC(=N)N)C(=O)NCC(=O)N[C@@H](CCCNC(=N)N)C(=O)N[C@@H](CCCCNC(=O)COCCOCCNC(=O)COCCOCCNC(=O)CC[C@H](NC(=O)CCCCCCCCCCCCCCCCC(=O)O)C(=O)O)C(=O)NCC(=O)NCC(=O)N[C@@H](CO)C(=O)N[C@@H](CCCCNc1c(NCCCCCN(O)C(=O)CCC(=O)NCCCCCN(O)C(=O)CCC(=O)NCCCCCN(O)C(C)=O)c(=O)c1=O)C(=O)O)C(C)C [zirconium-89 labelled] the tissue uptake was 0.11 %ID/g (rat, pancreas; iv, 3 nmol/kg, 168 h, ex vivo).
For C[C@H]1O[C@@H](O[C@H]2CC[C@@]3(C)[C@@H](CC[C@]4(C)[C@@H]3C=C[C@]35OC[C@@]6(CCC(C)(C)C[C@H]63)[C@@H](O)C[C@]54C)[C@]2(C)CO)[C@H](O)[C@@H](O[C@@H]2O[C@H](CO)[C@@H](O)[C@H](O)[C@H]2O)[C@H]1O, the hepatic triglycerides was 0.168 mmol/g protein and 0.0877 mmol/g protein and 0.132 mmol/g protein and 0.0563 mmol/g protein and 0.0855 mmol/g protein (mouse, chronic-plus-binge ethanol, AAV8-TBG-Null, liver; dose not given, high dose).
With [131I-].[Na+] the excellent response was 28.2% (ATA response criteria; human, papillary thyroid cancer, distant metastases; 3700 MBq).
With COc1ccc(N2C(=O)N(c3c(C)cccc3Cl)Cc3cnc(Nc4ccc(C5CCN(C)CC5)cc4OC)nc32)nc1 the inhibition was 99% (PDGFRA (Homo sapiens, UniProt P16234); kinase activity, inhibitor; 0.5 µM, kinase PDGFR-ALPHA).
The serum LDL-C of CCCCC1(CCCC)CN(c2ccccc2)c2cc(SC)c(OCC(=O)N[C@@H](C(=O)NCC(=O)O)c3ccccc3)cc2S(=O)(=O)C1 is reported as 72.5 mg/dL (item: LDL cholesterol; human, serum; 15 mg once daily, day 11).
For O=C(c1ccc(Cl)cc1)N1CCN2C(=O)N(OC(=O)N3CCOc4ccccc43)C(=O)C2C1 (stereo not drawn), “median protein ratio” read 0.99 (Dipeptidyl peptidase 2 (Homo sapiens, UniProt Q9UHL4); MS-based ABPP; SW-620 conditioned medium; 10 µM, 1 h, 37 °C; baseline: compound over DMSO, lower = more inhibition).
COc1cc2c(Oc3ccc4[nH]c(C)cc4c3F)ccnc2cc1OCC1(N)CC1: “grade 3 ALT elevation” 0% (paediatric recurrent refractory sarcoma; 8 mg).

Excerpt of the above:
With [131I-].[Na+] the excellent response was 28.2% (ATA response criteria; human, papillary thyroid cancer, distant metastases; 3700 MBq).
For Cn1ncc(-c2nc(N[C@H]3CC[C@H](N)CC3)ncc2Cl)c1CC1CC1, the CRi rate was 10% (phase I clinical trial; R/R AML or high-risk MDS patients; dose not given, intent-to-treat).
For C[C@H](NC(=O)c1c(C(F)F)nn(C)c1Oc1cccc(C(F)(F)F)c1)c1ccc(C(=O)O)cc1, the deaths was 12.5% (human, advanced tumours; 250 mg).
The event-free survival of CN1CCN(S(=O)(=O)c2cc([N+](=O)[O-])ccc2N(CCOS(C)(=O)=O)CCOS(C)(=O)=O)CC1 is reported as 31.2 days (NSG mice, sample BB PDX; intraperitoneal, 25 mg/kg weekly x3).
